Published values from different studies.
Protocols differ between the studies behind these lines. Several values in a cell are separate wells, animals, samples, runs or records. ± marks the error that the study gave.
CASP7: Caspase-7 (CASP7, Homo sapiens, UniProt P55210)
Gria2: Glutamate receptor 2 (Gria2, Rattus norvegicus, UniProt P19491)
T1: G-quadruplex DNA, parallel G-quadruplex (Homo sapiens); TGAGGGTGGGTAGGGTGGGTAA

SMILES | target | assay | system | conditions | scale | quantity | result
O=C1CCC(N2C(=O)c3cccc4c(Cc5ccc(CN6CCNCC6)nc5)ccc2c34)C(=O)N1 (centres unmarked) | Cereblon/Ikaros (Homo sapiens, UniProt Q13422+Q96SW2) | protein level, degrader, western blot | NCI-H929 | 1 nM, 4 h | – | remaining activity | 98.7%
CC(=O)N[C@@H](Cc1c[nH]c2ccccc12)C(=O)N[C@@H](CCC(=O)O)C(=O)N[C@@H](Cc1c[nH]cn1)C(=O)N[C@@H](CC(=O)O)C(=O)COC(=O)c1c(C)cccc1C | CASP7 | enzyme activity, inhibitor | – | – | – | kinact/KI | 13300 M⁻¹ s⁻¹
CC(C)C(Nc1nccnc1-c1ccccc1)C(=O)NCC1CC1 (centres unmarked) | human kinase panel | binding, KINOMEscan | – | 10000 nM, %Ctrl below 10 | – | number of kinases hit | 1
N=C(N)Nc1ccc(CNC(=O)c2cc(-c3ccccc3)n(-c3ccccc3)n2)cc1 | Genome polyprotein, NS2B-NS3 protease (dengue virus type 2, UniProt P29990) | enzyme activity, fluorogenic AMC substrate | – | 50 µM | – | inhibition | 33%
O=C(O)Cc1cc2c(cc1C(=O)c1ccccc1Br)OCO2 | Gria2 | whole-cell patch clamp | HEK-293T | concentration not given, with: glutamate | – | desensitization time constant | 1.1 ± 0.1 ms
Cc1cccc(C2(C(=O)Nc3c[nH]nc3-c3ccccc3)CC2)c1 | human kinase panel | binding, KINOMEscan | – | 10000 nM, %Ctrl below 35 | – | number of kinases hit | 3
Cn1cc(-c2cc(N3CCCCS3(=O)=O)ccc2N[C@H]2CC[C@H](C)CC2)c2cc[nH]c2c1=O (stereo in doubt) | CECR2 (Homo sapiens, UniProt Q9BXF3) | binding, competition with immobilised ligand | – | 1 µM | – | remaining binding | 97%
CC(=O)N[C@@H](CCC(C)C)C(=O)N[C@@H](CCCC(=O)O)C(=O)N[C@@H](CO)C(=O)N[C@@H](CC(=O)O)C(=O)COC(=O)c1c(C)cccc1C | CASP7 | enzyme activity, inhibitor | – | – | – | kinact/KI | 3800 M⁻¹ s⁻¹
CCOC(=O)C(CC)(CCCSCCOCCOCCN)NC(=O)c1ccc(C2CC2)c(Cc2ccc(F)cc2)n1 (racemic) | CNR2 (Homo sapiens, UniProt P34972) | radioligand binding | – | – | relative to: CB1 over CB2 (human) | Ki ratio | 11
CCCCCCCCCCCCCCCC(=O)NCCCC[C@H](NC(=O)[C@H](CCC(=O)O)NC(=O)[C@H](Cc1ccc(O)cc1)NC(=O)[C@H](CCC(=O)O)NC(=O)COCC(=O)NCCCOCCOCCOCCCNC(=O)[C@H](Cc1c[nH]c2ccccc12)NC(=O)[C@H](CCCCN)NC(=O)[C@H](C)NC(=O)[C@H](CCCCNC(=N)N)NC(=O)[C@H](CCC(N)=O)NC(=O)[C@H](Cc1c[nH]cn1)NC(=O)[C@H](CCSC)NC(=O)[C@H](CC(C)C)NC(=O)[C@H](CCC(N)=O)NC(=O)[C@@H](NC(=O)[C@H](CCC(=O)O)NC(=O)C(C)(C)NC(=O)[C@@H](NC(=O)C(C)(C)N)C(C)C)[C@@H](C)CC)C(=O)N[C@@H](CCC(=O)O)C(=O)N[C@@H](Cc1ccc(O)cc1)C(=O)N[C@@H](CCC(=O)O)C(N)=O | PTH1R (Homo sapiens, UniProt Q03431) | agonist | Saos-2 with cAMP reporter | 3.16 pM, 90 min, washout after 30 min ligand | higher = more cAMP | cAMP luminescence AUC | 130 a.u.
Nc1ccn([C@@H]2O[C@H](COP(=O)(O)OP(=O)(O)OP(=O)(O)O)[C@@H](O)[C@H]2O)c(=O)n1 | POLRMT (Homo sapiens, UniProt O00411) | single-nucleotide incorporation, substrate | – | – | – | Vmax | 0.41 product fraction
CCCCCCCCCCCCC/C=C/C=O | 5'-nucleotidase domain-containing protein 1 (NT5DC1, Homo sapiens, UniProt Q5TFE4) | competitive isoTOP-ABPP, measured: NT5DC1 cysteine peptide | Ramos soluble proteome | 100 µM, with: iodoacetamide probe | relative to: DMSO over compound-treated, higher = stronger cysteine blockade | isoTOP-ABPP competition ratio | 1
C#CC[C@H](NC(=O)c1ccc(C(=O)c2ccccc2)cc1)C(=O)NCCCCCC(=O)N[C@@H](CCCCNC(=O)CSCCNC(=O)CCNC(=O)[C@H](O)C(C)(C)COP(=O)(O)OP(=O)(O)OC[C@H]1O[C@@H](n2cnc3c(N)ncnc32)[C@H](O)[C@@H]1OP(=O)(O)O)C(N)=O | MTHFD1 (Homo sapiens, UniProt P11586) | affinity enrichment LC-MS/MS | HEK293 cell extract, PCAF transfected | – | relative to: 1 over empty vector | enrichment ratio | 2.2
CC(C)[C@@H]1NC(=O)[C@H](Cc2ccccc2)NC(=O)CSC[C@@H](C(N)=O)NC(=O)[C@H](CCC(=O)O)NC(=O)[C@H](CO)NC(=O)[C@H](Cc2c[nH]c3cccc(Cl)c23)NC(=O)[C@H](C2CCCCC2)NC(=O)[C@H](C(C)C)NC(=O)[C@H](Cc2ccc(O)cc2)NC(=O)[C@H](CC(=O)O)NC(=O)[C@H](Cc2c[nH]c3ccccc23)NC(=O)[C@H](Cc2ccc(N)nc2)NC(=O)[C@H](Cc2c[nH]c3ccc(Cl)cc23)NC(=O)[C@H](CCC(=O)O)NC1=O | Interleukin-1 receptor-like 2 (IL1RL2, Homo sapiens, UniProt Q9HB29) | reporter gene (SEAP), inhibitor, HEK-Blue IL-36R reporter | HEK-Blue IL-36R cells | 0.046 µM, 6 h, with: IL-36γ 0.1 ng/mL | – | remaining activity | 75.8%
N#CN1CC[C@H](C(=O)Nc2nc3c(s2)CN(C(=O)Cn2cc(COCCOCCOCCOCCNC(=O)CCCC[C@@H]4SC[C@@H]5NC(=O)N[C@@H]54)nn2)CC3)C1 | USP7 (Homo sapiens, UniProt Q93009) | probe binding, affinity probe, neutravidin pull-down LC-MS/MS | HEK293T, cell lysate | 5 µM, 1 h, mean of three replicates, unit not given | higher = more pulled down | iBAQ abundance | 5.59e+06
Cc1cc(C)cc(COc2cc3c(cc2OCc2cc(C)cc(C)c2)C2CC(O)(Cc4cn(CCOCCOCCNC(=O)CCCCC5SCC6NC(=O)NC65)nn4)CC(C)N2CC3)c1 (centres unmarked) | Serum paraoxonase/arylesterase 2 (Homo sapiens, UniProt Q15165) | biotinylated probe pull-down, measured: PON2 | – | 10 µM probe | relative to: heavy over light | SILAC ratio | 2.08
CC(=O)N[C@H](C(=O)N[C@@H](CCC(=O)O)C(=O)N[C@@H](C)C(=O)N[C@@H](CC(=O)O)C(=O)COC(=O)c1c(C)cccc1C)C(C)C | CASP7 | enzyme activity, inhibitor | – | – | – | kinact/KI | 47800 M⁻¹ s⁻¹
CC(C)(C(=O)N1CCC(Nc2nc3c(c(=O)[nH]2)CCCC3)CC1)c1ccc(Cl)cc1 | MRGPRD (Homo sapiens, UniProt Q8TDS7) | miniGq recruitment, agonist, BRET1 | HEK293T | – | – | Hill slope | 0.84
CC(=O)Nc1ccc(-c2ccnc(NCC3CCC3)n2)cc1 | human kinase panel | binding, KINOMEscan | – | 10000 nM, %Ctrl below 10 | – | number of kinases hit | 3
O=C1c2sc(-c3ccc(N4CCC(F)C4)nc3F)nc2CCN1c1cccnc1 (centres unmarked) | HRH4 (Homo sapiens, UniProt Q9H3N8) | ligand displacement, radioligand | – | 1 µM | – | inhibition | -3%
O=C(O)Cc1cc2c(cc1C(=O)c1ccccc1Cl)OCO2 | Gria2 | glutamate-evoked current, whole-cell patch clamp | HEK-293T | concentration not given, pH 7.4, holding potential -60 mV, with: 10 mM glutamate | – | current amplitude | 175 ± 18 pA
Cn1c(=O)n(C2CCC(=O)NC2=O)c2ccc(C3CCN(CC(=O)Nc4cccc(CS(=O)(=O)N5CC[C@H](Nc6cccc(-c7sc(C(=O)O)c(OCC(=O)O)c7Cl)c6)CC5(C)C)c4)CC3)cc21 (some centres unmarked) | PTPN2 (Homo sapiens, UniProt P17706) | degrader, bio-layer interferometry | – | 250 nM, biotinylated protein immobilised | higher = more binding | BLI binding response | 0.415 a.u. and 0.395 a.u.
CCCCCC=CC=C1C(=O)C=CC1CC=CCCCC(=O)O (centres unmarked) | Cleavage stimulation factor subunit 2 (CSTF2, Homo sapiens, UniProt P33240) | competitive isoTOP-ABPP, measured: CSTF2 cysteine peptide | proteome, soluble, MDA-MB-231 | 100 µM, with: iodoacetamide probe | relative to: DMSO over compound-treated, higher = stronger cysteine blockade | isoTOP-ABPP competition ratio | 3
O=C(O)Cc1cc2c(cc1C(=O)c1ccccc1)OCO2 | Gria2 | glutamate-evoked current, whole-cell patch clamp | HEK-293T | concentration not given, weighted tau, 1 ms pulse, with: glutamate | – | deactivation time constant | 2.6 ± 0.1 ms
CC(C)c1ccc(/C=C/C(=O)c2c[nH]c3ccccc23)cc1 | MAOA (Homo sapiens, UniProt P21397) | enzyme activity, inhibitor | – | 10 µM | – | activity vs control | 33.5%
CN(C)c1ccc(/C=C/C=C/c2cc(-c3ccc(N(C)C)cc3)[o+]c3ccccc23)cc1 | T1, G-quadruplex DNA, parallel G-quadruplex (Homo sapiens) | fluorescence turn-on | – | absorption red shift | – | binding | binds
COc1ccccc1-c1ccncc1C(=O)Nc1nnc(OCc2ccc(Cl)cc2)s1 | DNA polymerase theta, helicase domain (POLQ, Homo sapiens, UniProt O75417) | ATPase activity, ADP-Glo | – | 0.008 µM, with: ATP 600 µM | – | remaining activity | 75%
C=CC(=O)N1CCCC(n2c(=O)c3ncccc3n(Cc3ccc(Oc4ccccc4)cc3)c2=O)C1 (centres unmarked) | Small nuclear ribonucleoprotein Sm D2 (Homo sapiens, UniProt P62316) | thermal proteome profiling, measured: SNRPD2 | – | treated | – | melting temperature | 60 °C and 58.7 °C
NS(=O)(=O)c1ccc(CCN2C(=O)c3ccc(N4CCOCC4)cc3C2=O)cc1 | CA2 (Bos taurus, UniProt P00921) | binding | – | 2 µM, pH 7.2 | relative to: without protein | fluorescence turn-on | 5.4 fold

Repeated from above:
SMILES | target | assay | system | conditions | scale | quantity | result
O=C(O)Cc1cc2c(cc1C(=O)c1ccccc1Cl)OCO2 | Gria2 | glutamate-evoked current, whole-cell patch clamp | HEK-293T | concentration not given, pH 7.4, holding potential -60 mV, with: 10 mM glutamate | – | current amplitude | 175 ± 18 pA
Cn1c(=O)n(C2CCC(=O)NC2=O)c2ccc(C3CCN(CC(=O)Nc4cccc(CS(=O)(=O)N5CC[C@H](Nc6cccc(-c7sc(C(=O)O)c(OCC(=O)O)c7Cl)c6)CC5(C)C)c4)CC3)cc21 (some centres unmarked) | PTPN2 (Homo sapiens, UniProt P17706) | degrader, bio-layer interferometry | – | 250 nM, biotinylated protein immobilised | higher = more binding | BLI binding response | 0.415 a.u. and 0.395 a.u.
